{"data": "Results gathered from unrelated publications", "note": "Values joined by “and” are separate records of one study, mostly repeats; a detail may differ. ± marks the error that the study gave."}
{"Molecule": "GLCGKGGKCCCGC", "test": "absorbance at 734 nm", "test system": "peptide", "setting": "1 mg/mL, 5 min, room temperature", "endpoint": "ABTS radical scavenging", "value": "0.916 fraction (0-1)"}
{"Molecule": "EALYLVCGE", "test": "tetramer binding, flow cytometry", "test system": "peptide, tetramer-binding CD4+ thymocytes, female NOD mice, 6 weeks, thymus", "setting": "dose not given", "endpoint": "FOXP3+ Treg cells", "value": "82.6% and 86.4% and 43.8% and 76% and 61.5% and 53.3%"}
{"Molecule": "colistin", "target or system": "Aspergillus fumigatus", "test system": "pkcA G579R, solid minimal medium", "setting": "80 µM, 4 days, 37 °C", "scale": "reference: untreated", "endpoint": "radial growth ratio", "value": "0.775 and 0.782 and 0.8"}
{"Molecule": "GWTLNSAGYLLGPHAVDNHRSFNDKHGFT-NH2 (C-amide)", "test": "RT-qPCR, refers to: Tnf", "test system": "peptide, chicken, DSS-induced colitis, ileum", "setting": "ip, 50 µM, unit not given", "scale": "reference: Actb", "endpoint": "mRNA level", "value": "5.52 and 5.07 and 4.83 and 5.68 and 7.47 and 4.37 and 9.25"}
{"Molecule": "Polymyxin B", "test system": "mouse", "setting": "intraperitoneal, 30 mg/kg single dose, day 2", "endpoint": "survival", "value": "0%"}
{"Molecule": "nonaarginine", "target or system": "PorA peptide pore", "test": "peptide binding, planar bilayer single-channel recording", "setting": "0.5 µM, pH 7.4, -35 mV, cis side, 150 mM KCl", "endpoint": "kon", "value": "4.2e+07 ± 4e+06 M⁻¹ s⁻¹"}
{"Molecule": "insulin human", "test": "refers to: RIMS1 mRNA", "test system": "uninfected mouse, brain", "setting": "i.p., dose not given", "scale": "reference: PBS", "endpoint": "fold change", "value": 1.41}
{"Molecule": "Met-enkephalin-Arg-Phe", "test": "antinociception, hot plate", "test system": "male ICR-CD1 mice", "setting": "intracerebroventricular, 50 µg/animal, 30 min", "endpoint": "maximum possible effect", "value": "8.72% and 15.3% and 6.36% and -6.65% and -8.91% and 9.41% and 6.14% and -2.18%"}
{"Molecule": "HVLVMSATRR", "test system": "peptide, C57BL/6J mice, male, blood", "setting": "subcutaneous osmotic pump, 3 mg/kg/day peptide basis, 8 weeks", "endpoint": "eosinophils", "value": "2% and 0% and 1% and 3%"}
{"Molecule": "LLGKKLLKGAKGG", "test": "absorbance at 734 nm", "test system": "peptide", "setting": "1 mg/mL, 5 min, room temperature", "endpoint": "ABTS radical scavenging", "value": "0.00847 fraction (0-1)"}
{"Molecule": "fengycin", "test": "calcein leakage", "test system": "DOPC/CHOL liposomes", "setting": "concentration not given, with: 20 wt% PEG-8000", "endpoint": "leakage time constant", "value": "13 ± 7 min"}
{"Molecule": "hexaarginine", "target or system": "PorA peptide pore", "test": "peptide binding, planar bilayer single-channel recording", "setting": "0.5 µM, pH 7.4, -5 mV, cis side, 150 mM KCl", "endpoint": "kon", "value": "3.5e+07 ± 4e+06 M⁻¹ s⁻¹"}
{"Molecule": "polymyxin B", "test": "calcein leakage", "test system": "DOPC/DOPG/CHOL liposomes", "setting": "concentration not given, with: 40 mM CaCl2", "endpoint": "leakage time constant", "value": "82 ± 38 min"}
{"Molecule": "GWTLNSAGYLLGPRRIDHLLMIKEMPIARGREEAPGA / YAVDNHRSFNDKHGFT-NH2 (C-amide)", "test": "RT-qPCR, refers to: Tgfb1", "test system": "chicken, DSS-induced colitis, ileum", "setting": "ip, 50 µM, unit not given", "scale": "reference: Actb", "endpoint": "mRNA level", "value": "0.0972 and 0.121 and 0.0853 and 0.106 and 0.0936 and 0.103 and 0.0689"}
{"Molecule": "aspterric acid", "test system": "Arabidopsis thaliana Col-0 seeds", "setting": "25 µg/mL, seed germination", "endpoint": "root length", "value": "0.01 cm"}
{"note": "A few entries again:"}
{"Molecule": "hexaarginine", "target or system": "PorA peptide pore", "test": "peptide binding, planar bilayer single-channel recording", "setting": "0.5 µM, pH 7.4, -5 mV, cis side, 150 mM KCl", "endpoint": "kon", "value": "3.5e+07 ± 4e+06 M⁻¹ s⁻¹"}
{"Molecule": "polymyxin B", "test": "calcein leakage", "test system": "DOPC/DOPG/CHOL liposomes", "setting": "concentration not given, with: 40 mM CaCl2", "endpoint": "leakage time constant", "value": "82 ± 38 min"}
